Measurements collected from several papers.
Numbered parts are unrelated; each lists some results of a single study.

Sample 1
Target: Interferon regulatory factor 5, full length, phosphomimetic (IRF5, Homo sapiens, UniProt Q13568-2, residues 1-514, S451D/S453D/S456D/S462D)
Technique: protein-binding microarray
Form: double-stranded DNA, one strand shown
Sample: in vitro
Tested at: 940 nM top
Setting: 60-bp whole probe
With: salmon DNA 0.4 mg/ml
Relative to: random background probes
Reading: higher = stronger binding
Constant ends, left off below: GCCTAGCAC … GTCTTGATTCGCTTGACGCTGCTG
Strand | fitted relative affinity [z-score]
TCATGTTTGGGTCTTGTACTGTGCTAG | 0.369
ATTTTTATCAAATGTGGGATTGTGCTA | -0.148
GACGGTATCGGTTTCTGGACGTGCTAG | 7.84
GACGGTTTCGACTAGCGGGACGTGCTA | 9.12
GACGGACTGGGACTCGGGACGTGCTAG | -0.216
TTAGGCTTCGGTTTCGGTTAGTGCTAG | 7.58
TTAGATATCTGTATCGATTAGTGCTAG | 1.52
GACGGTTTCGGGTTTCGGAACGTGCTA | 8.32
TCAAGTTTTCCTATGTCACTGTGCTAG | 0.956
TCAGGTTTTACTTTCTAACTGTGCTAG | 1.34
TTAGCTTTCGGGACTGGATTAGTGCTA | 2.15
TTAGAACTGGGGTATCCATTAGTGCTA | 0.126
TCAGCTTTCATTTATTTACTGTGCTAG | 1.63
TTGGATTTCAGACTGGATTAGTGCTAG | -0.499
TTAGGTATCAGTTTCGATTAGTGCTAG | 9.13
GCCGGTCTCGGTCTCGGGACGTGCTAG | 5.03
TTAGGACTGGACACTTGGTTAGTGCTA | -0.659
AGTCGTGAGCCGCACAGTGGGTGCTAG | -0.523
TCATTTTACTTTCTGAAACTGTGCTAG | 1.53

Sample 2
Target: RNA binding protein fox-1 homolog 2, RRM domain, GST-SBP tag (RBFOX2, Homo sapiens, UniProt O43251-10, residues 100-194)
Technique: RNA Bind-n-Seq
Form: RNA
Sample: in vitro
Tested at: 365 nM
Setting: natural RNA segment, single round, ends assumed
Relative to: no-protein control
Reading: higher = stronger binding
Target sequence (chain): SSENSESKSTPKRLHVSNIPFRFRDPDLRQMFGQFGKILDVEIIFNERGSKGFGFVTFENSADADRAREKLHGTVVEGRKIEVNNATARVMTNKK
Strand | RBNS enrichment (R)
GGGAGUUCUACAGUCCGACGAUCUGCAUGUCACACCUCCUUUUCCUUUGCUUCACUUCUGUCAACUGUAGCGACUUUGGUGUGCAGUGAGAUGCUCACCUUUAGCCUCUGCUCCCCUAACUAGGCUGGCACUUUGGAAUUCUCGGGUGCCAA | 1.3
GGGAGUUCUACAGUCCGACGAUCUCAAAAAAAAAAGGUGGGUAAAGGGCCAUGAGCCCAAACCACUAGGUUGUUCACCUUUUCAUCUGAAAAUGCUUUACUCUGACUAUGUGCUAUUGGGUUUUAUUUCCAGAUGGAAUUCUCGGGUGCCAA | 0.455
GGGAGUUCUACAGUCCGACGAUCUCAUGUACCCAGUGUUAACUCUUUGUUGUUGUCCCUUUCAAAUAUGGAUAACUCUGUGAACAGUCUUGACUUUUUGUAUCAUGAGACAGAGUGCCUAAGAGAAACCCUUGUGGAAUUCUCGGGUGCCAA | 0.207
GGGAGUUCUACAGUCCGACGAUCAGGGCCACGGCCUUGGCCUGGGCCACCGUGACAUUGGAAGAGCCUGUGUGAGAACUUACUCGAAGUUCACAGUCUAGGAGUGGAGGGGAGGAGACUGUAGAGUUUUGGGGUGGAAUUCUCGGGUGCCAA | 1.26
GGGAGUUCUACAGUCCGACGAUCAAGAGUACUUACAGCUUGAGGGAAAAGCAUAAAGUUUUAGUUAAAUAGCCUUCAUACUGUGGAUUUUUCCUCCUACUAACUAAUAUGUGGGAAAUUAAGAUUACAGAUGCUGGAAUUCUCGGGUGCCAA | 0.426
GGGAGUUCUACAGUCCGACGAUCUUAGAAUUUUUCUUUAAAUUAUGGUUUUCUUAUUCGUGAAAAUUCGGAGAGUGCUGCUAAAAUUGGAUUGGUGUGAUCUUUUUGGUAGUUGUAAUUUAACAGAAAAACACUGGAAUUCUCGGGUGCCAA | 0.754
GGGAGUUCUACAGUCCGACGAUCUCUAAUCGGUCCCCAAGGAGAAAGAACAUAAACAAAGAGUGAGGUCUUCCCUCCCACUGAACACUAUUCCCAUAGUUUCCUUUUGCUCCCCAGCCUGUAAUUCUAAGUUCUGGAAUUCUCGGGUGCCAA | 0.571
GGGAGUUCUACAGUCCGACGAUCACAGAUAAAUCCUUAACAUUUCUCUCCACCUUAGUACUUUAGACUAAUUGUGUUUGUCCGUCCAUGCCAUGAAUGAGUGGGCUGUAGUUGGGCCUAAAUAAAUGAGCUGUUGGAAUUCUCGGGUGCCAA | 0.814

Sample 3
Target: Histone acetyltransferase KAT6A, both winged helices, GST fusion (KAT6A, Homo sapiens, UniProt Q92794, residues 1-181)
Technique: protein binding microarray
Form: double-stranded DNA, one strand shown
Sample: in vitro
Tested at: not given
Setting: 8-mer, flanks averaged, mean of 2 arrays, mostly near background
Relative to: not given
Reading: higher = stronger binding
Construct (chain): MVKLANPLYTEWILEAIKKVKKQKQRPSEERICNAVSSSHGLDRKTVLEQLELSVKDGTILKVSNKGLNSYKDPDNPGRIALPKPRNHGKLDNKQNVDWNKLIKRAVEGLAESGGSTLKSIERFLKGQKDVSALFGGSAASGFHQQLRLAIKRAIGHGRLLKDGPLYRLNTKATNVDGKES
Strand | E-score
CCCCATTC | -0.121
GGCGACCA | 0.0988
CTCCCCAA | -0.172
CCAAGCAG | -0.0979
GCTTCTGA | 0.016
TCGGGACA | -0.0428
CGGCATAC | 0.284
GATCCATC | -0.0461
ATCCGTGG | 0.165
CCGCGACC | 0.206
CACAAAGA | -0.151
CTAAGAGA | -0.218
GGGGAGCA | -0.128
TAATGAGA | -0.0911
ATGCACAA | -0.176
CACTAGTC | -0.115
GCAAATCA | 0.00542
ATAGTTGG | -0.226
GCATCACA | 0.0431
AGATAAAG | -0.0931
CATAGATC | -0.0926
CCAGCGCA | 0.172
CCATATCC | -0.023
TACTGCAA | -0.226
TACCCCCA | -0.249

Sample 4
Target: RING finger protein unkempt homolog, zinc fingers 1-6, GST-SBP tag (UNK, Homo sapiens, UniProt Q9C0B0, residues 30-357)
Sequence of UniProt Q9C0B0 (30-357, looked up): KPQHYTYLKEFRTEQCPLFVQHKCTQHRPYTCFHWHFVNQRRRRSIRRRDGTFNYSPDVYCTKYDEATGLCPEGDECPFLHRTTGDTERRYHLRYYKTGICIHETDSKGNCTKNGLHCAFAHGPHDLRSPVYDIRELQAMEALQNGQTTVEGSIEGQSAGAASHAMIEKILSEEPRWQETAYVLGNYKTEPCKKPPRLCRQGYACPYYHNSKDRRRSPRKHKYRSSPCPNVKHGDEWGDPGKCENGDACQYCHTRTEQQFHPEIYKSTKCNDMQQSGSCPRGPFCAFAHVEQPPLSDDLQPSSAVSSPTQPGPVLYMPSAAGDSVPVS
Technique: RNA Bind-n-Seq
Form: RNA
Sample: in vitro
Tested at: not given
Setting: RNA with constant flanks, human and mouse sites, ends assumed
Relative to: input RNA pool
Reading: higher = stronger binding
Strand | bound/input enrichment [ratio]
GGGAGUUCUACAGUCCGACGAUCGGACCGUGCCCUAGAAUUUGCCCCUGCCUGCCAUCGCUUCAAAAUCCUCAAGGCAGAAUGUUUAGCAAUGCUGGGUCGUUAUCCAGAAGCACAGUCUGUGGCUAGUGACAUUCUACGAAUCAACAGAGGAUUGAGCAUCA | 0.292
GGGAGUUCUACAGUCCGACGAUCUAACGUUACAUAUCAUAGUGAAUGGUUUCCCCAGUGUAUAUGAAUGUUUUAAGUGUCUCCAAUAGCUUAUGCAGUCUAGGAGCUUUCCAAUACUCAUUUAAUUAAGAUUUAAUCAUUUGCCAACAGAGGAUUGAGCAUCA | 1.22
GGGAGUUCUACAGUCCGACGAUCGAAAAUCAAAAGACUAAUAUUAAUACUGUGGCUAAACAGGAACAGCGACCCAUAAAAAAGAAUAGUCUUUAUUCAACAGAUUUCAUAGUGUUUAAUGACAACGAUGGUUCAGAUGAUGAACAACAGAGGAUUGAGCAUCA | 0.738
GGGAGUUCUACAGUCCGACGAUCACUACUUGGAUGGAUACUAAAGGACCCAAGACAGCUGAAUCAGAAAGUAAAGAAAACAACAAUACAAGAAUUGACUCCAUGAUGAGUUCUGUGCAGAAAGAUAACUUUUACCCACAUAAGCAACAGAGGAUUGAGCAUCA | 0.233
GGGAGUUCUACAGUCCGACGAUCUGAAGGUUAUUUUGUUGUAUUUAGUAUUGGAAGAGUUGGUUUUCAGAGCAUUUCAGAAUGUUGGAAGCACCGCUGUCCUUUUGUUAGUAUAUAAGGCCUUUUAGCAAAGGUUUUCUCCUUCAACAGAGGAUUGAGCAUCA | 0.979
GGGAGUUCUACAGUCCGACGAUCAGGAUGGGGUUUGUUAAAGUUGUUAAGAAUAAGGCCUACUUUAAGAGAUACCAAGUGAAAUUUAGAAGACGACGAGAGGGUAAAACUGAUUAUUAUGCUCGGAAACGCUUGGUGAUACAACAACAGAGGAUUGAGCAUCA | 0.548
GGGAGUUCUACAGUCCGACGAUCAUGAACCUACAAAUAGUUGACAGAGCCAUUCAGGUAGUUCGAAGUGCUUUAGCUAACCAGAUAGAUUGGACAGAAAUUGGGUUAAUUGUGAAAGAAGCCCAGGCUCAAGGAGACCCUGUUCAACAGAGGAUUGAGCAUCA | 0.399
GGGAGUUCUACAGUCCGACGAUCAGAAAUCAAUGUAAUUUUAAACCUCAGAUGGAUCUUGAAGUUAAAGAAAUUUCUCUAGAUAGUUAUAAUGCGCAGUUGGUGCAAUUAGAAGCUAUGCUAAGAAAUAAGGAAUUAAAACUUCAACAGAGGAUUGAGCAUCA | 0.422

Some of these lines once more (sample 2):
Strand | RBNS enrichment (R)
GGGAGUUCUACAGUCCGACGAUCAGGGCCACGGCCUUGGCCUGGGCCACCGUGACAUUGGAAGAGCCUGUGUGAGAACUUACUCGAAGUUCACAGUCUAGGAGUGGAGGGGAGGAGACUGUAGAGUUUUGGGGUGGAAUUCUCGGGUGCCAA | 1.26
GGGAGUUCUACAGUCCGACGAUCAAGAGUACUUACAGCUUGAGGGAAAAGCAUAAAGUUUUAGUUAAAUAGCCUUCAUACUGUGGAUUUUUCCUCCUACUAACUAAUAUGUGGGAAAUUAAGAUUACAGAUGCUGGAAUUCUCGGGUGCCAA | 0.426
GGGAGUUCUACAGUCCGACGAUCUUAGAAUUUUUCUUUAAAUUAUGGUUUUCUUAUUCGUGAAAAUUCGGAGAGUGCUGCUAAAAUUGGAUUGGUGUGAUCUUUUUGGUAGUUGUAAUUUAACAGAAAAACACUGGAAUUCUCGGGUGCCAA | 0.754
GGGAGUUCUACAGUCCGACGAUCUCUAAUCGGUCCCCAAGGAGAAAGAACAUAAACAAAGAGUGAGGUCUUCCCUCCCACUGAACACUAUUCCCAUAGUUUCCUUUUGCUCCCCAGCCUGUAAUUCUAAGUUCUGGAAUUCUCGGGUGCCAA | 0.571
